Results collected from several papers.
Each numbered part is a random draw from the data of one study; scales do not carry over between parts.

Series 1
Target: Hepatocyte nuclear factor 3-alpha (Foxa1, Mus musculus, UniProt P35582, residues 1-468, full length assumed)
Sequence of UniProt P35582 (whole entry, looked up): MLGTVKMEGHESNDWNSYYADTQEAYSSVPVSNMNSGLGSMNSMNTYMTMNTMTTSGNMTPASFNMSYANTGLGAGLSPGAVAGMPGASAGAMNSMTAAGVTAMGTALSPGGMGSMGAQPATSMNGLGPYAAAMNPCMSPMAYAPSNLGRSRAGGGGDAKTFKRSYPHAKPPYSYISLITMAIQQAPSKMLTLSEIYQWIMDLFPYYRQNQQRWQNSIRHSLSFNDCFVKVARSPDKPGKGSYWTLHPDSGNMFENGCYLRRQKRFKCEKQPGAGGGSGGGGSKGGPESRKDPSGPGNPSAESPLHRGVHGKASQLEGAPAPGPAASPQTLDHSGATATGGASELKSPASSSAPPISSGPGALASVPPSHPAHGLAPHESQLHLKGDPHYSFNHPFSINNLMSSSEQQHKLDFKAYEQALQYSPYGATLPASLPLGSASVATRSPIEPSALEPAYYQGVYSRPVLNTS
Technique: EMSA with sequencing
Form: double-stranded DNA, one strand shown
Sample: in vitro
Concentration: 10 and 20 nM
Setting: whole designed probe, mean of two concentrations, ends assumed
Relative to: negative control set to 0
Reading: higher = stronger binding
Strand | normalised bound fraction [ratio]
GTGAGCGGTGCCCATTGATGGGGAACTTTCCAGCCCTTAGTTTCTGGCATTTAACCTGACTCTGGTCCCTGAATGGCATGGGAGTGCTTTCAACCACAGGTTTCCACATTCATGCCACTTGTTTGCTTTTTGATCTACAGAGCTGACTCATTCATCTTTATTTGCTTTGTGTTTCCAATGGAGAAAGAGCTTGGGAAGGGAGGATCCTAATTGTCTAAATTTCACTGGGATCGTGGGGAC | 0.519
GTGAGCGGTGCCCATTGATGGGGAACCACGCGGAGAGGCCACCTGCCCGGGCCAATCTGTACGCTCCGTGATCTTCGCCCGCTCCCCGGCCCCGCGCCCTGGTGTCCCTGCAGTCGCTGAGTAAACAGCGACTGGGAGCCATCTTGGGGCGGAGGACCGATCCCAAGCGAAGTAGTAGTGGCTGCAGCCCGGGTGCCCCCATTCGTAAAGGGGAGCCTCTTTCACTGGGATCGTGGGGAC | 0.325
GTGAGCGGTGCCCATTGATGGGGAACTGTATGAAATTTGTACAGAGGTGGAATCGTTTCTGCCATTTTTCACACACAAGTTGGTGCACATTCCTAATATGAATTAAAAATAAATATGCCATGTGTACACAGGGATGAGTCAACATTGCATGCAGCCAGCCATGGCCACTGGGAGAAGAGTCAGACATGGGCCATGGAGCTGCAGGCTCACCTGCCCCCGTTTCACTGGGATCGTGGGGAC | 0.366
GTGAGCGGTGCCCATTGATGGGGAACGCGTCCCCGCCCAGGGCAAAGCCAGGACAAGGCCTTATATATAGGCCAGGAGAGGGGAGGGCGGTGGCTCTCTGCTGGGCCGCCAGACGGAAGGTAAACAGCGCCGGGGACTGGTAGCTCCTGTCTCCAGGCAGGAATGCACAGGCCGCGCCTGAGGCAGGTGCGTCCCCAGGGAGGGTTCTGCCCTCTGAAGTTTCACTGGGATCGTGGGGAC | 0.132
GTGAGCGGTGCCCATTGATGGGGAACATCTTCCCCCTCTTCCTTGCCCCACCAGCTCACCTTCCCGGGTTATTTGCAGATAGGAAAATAAATAAAGCCGGCATTCGTTAACCCTCTTCTGGCGCAAACTGCTGTTTGCTCTGGATGAATCATGGTCCTTTGGCGACGCCAGGCTCCGGGAGAGCAAAGCACCGTGTCGCATGACGAGTCCGGGGTGGCCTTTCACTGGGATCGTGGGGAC | 0.342

Series 2
Target: Phosphate system positive regulatory protein PHO4, full length, GST-tagged (PHO4, Saccharomyces cerevisiae, UniProt P07270, residues 1-312)
Technique: competition protein-binding microarray
Form: double-stranded DNA, one strand shown
Sample: in vitro
Concentration: 2 µM
Setting: whole 60-bp probe, lowest competitor level
Added: Cbf1 competitor, 0.05 µM
Reading: higher = stronger binding
Construct (chain): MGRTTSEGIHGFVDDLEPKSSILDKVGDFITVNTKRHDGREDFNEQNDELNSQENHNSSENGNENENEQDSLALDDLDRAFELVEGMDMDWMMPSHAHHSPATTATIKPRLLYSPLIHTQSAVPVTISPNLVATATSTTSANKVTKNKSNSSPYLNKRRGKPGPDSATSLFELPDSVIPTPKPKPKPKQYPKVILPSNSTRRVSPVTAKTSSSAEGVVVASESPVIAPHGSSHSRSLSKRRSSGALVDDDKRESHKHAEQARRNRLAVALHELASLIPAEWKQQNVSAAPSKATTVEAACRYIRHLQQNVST
Strand | fluorescence intensity [a.u.]
ACACCAAACCTCTTCCACGTGTTTTTCTTGGTGGATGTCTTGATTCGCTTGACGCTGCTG | 19100
CTTTCCCGATCTTGGTCAGTGGGTGTAGCACATTTGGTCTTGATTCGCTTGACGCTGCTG | 4840
CTTCTGTAAATTTGACACGTGTTTTGACGCGCCCCGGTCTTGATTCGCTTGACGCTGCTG | 17400
CATACCCAACCTTGTCGGGTGGGTGAAGATATTTGTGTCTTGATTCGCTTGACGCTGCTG | 3890
CAGGAAAAGTCTTTGGTGTTTCCTTCTTTGTACATTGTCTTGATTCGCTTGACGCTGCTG | 2550
CGGGGTTAAGTTTTTCACGTGTTTTGCTTGCAGCAGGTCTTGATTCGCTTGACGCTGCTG | 13100
TACTGAATGCTACTGACCGTGACGGTCTATCAGGCTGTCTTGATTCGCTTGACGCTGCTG | 4180
TAAGTGAGATGGAGTGGCGTGGAACTGCAGGCTGGTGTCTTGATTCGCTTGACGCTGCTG | 5080
TTCAACGACAGAGGCCTTGTGACGCCCTGGAGCTTGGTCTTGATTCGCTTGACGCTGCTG | 3050
TGTCTGGGACCGCTTCACGGGTCCAAATTACCACTTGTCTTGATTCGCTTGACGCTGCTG | 4230
TGTGGGGGTAACCATCACGGCGTCGCACAACCCATAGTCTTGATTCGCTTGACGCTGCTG | 6100
ACGGGAATATGGTCTTCTGCGATAGCTAGTAGAGAAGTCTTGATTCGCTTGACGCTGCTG | 3970
TACACCCAGTCATCCGGCGTGACGGGATCTCCACTTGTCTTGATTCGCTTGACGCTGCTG | 4890
CGGGGTTAAGTTTGTCTGGTGGGTGGCTTGCAGCAGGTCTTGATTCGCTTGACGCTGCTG | 4650
CTTCTGTAAATTTGTGCAGTGGGTGGACGCGCCCCGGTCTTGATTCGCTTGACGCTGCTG | 4570
TGCGCAACAACTTGTCACCTAACTTTATGTCTAGAAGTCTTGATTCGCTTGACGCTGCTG | 3680
CGGGGTTAAGTTTGTCACCGTACTTGCTTGCAGCAGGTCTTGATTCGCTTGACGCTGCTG | 3760
CTTCTGTAAATTTTTCACGTGGAGTGAAGCGCCCCGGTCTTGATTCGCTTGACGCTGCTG | 13500
TCCTCAGGGACCTCTCACGTGCCGAGTATCAGCCAGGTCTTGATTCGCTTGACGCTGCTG | 13600

Series 3
Target: Histone acetyltransferase KAT6A, winged helix 1, GST fusion (KAT6A, Homo sapiens, UniProt Q92794, residues 1-85)
Technique: protein binding microarray
Form: double-stranded DNA, one strand shown
Sample: in vitro
Concentration: not given
Setting: 8-mer, flanks averaged, mean of 2 arrays, mostly near background
Relative to: not given
Reading: higher = stronger binding
Residues (chain): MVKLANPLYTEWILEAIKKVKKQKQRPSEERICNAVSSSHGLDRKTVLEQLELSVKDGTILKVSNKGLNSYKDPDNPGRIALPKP
Strand | E-score
AGTTAAAA | -0.124
AAATAACA | 0.0219
CTCCCGCA | 0.304
CGCACGGC | 0.449
CCAATCAC | -0.172
CTGTTATA | -0.0537
ATACACCC | -0.00395
GACTGTCA | 0.0373
CACGCAAC | 0.142
ATCCCCCG | 0.24
ATTATACC | 0.0132
ATGCGTGA | 0.0905
GCTAATAC | 0.0456
TCGAAACA | -0.247
GGAGACTA | -0.163
CAGTTAGC | 0.0167
GTACGCAC | 0.254
GTGGTAAC | -0.0975
AGCCCTAG | -0.188
CAGCGAGA | 0.0338
CCTGGCTA | -0.263
CAGCGGTC | 0.197
GTTAATTA | -0.0353
GATTACTA | -0.0301

Series 4
Target: Interferon regulatory factor 7, full length, phosphomimetic (IRF7, Homo sapiens, UniProt Q92985, residues 1-503, S101K/S471D/S472D/S475D/S476D/S477D/S483D/S484D/S487D)
Technique: protein-binding microarray
Form: double-stranded DNA, one strand shown
Sample: in vitro
Concentration: 250 nM
Setting: 60-bp whole probe
Added: salmon DNA 0.4 mg/ml
Relative to: random background probes
Reading: higher = stronger binding
Constant ends, left off below: GCCTAGCAC … GTCTTGATTCGCTTGACGCTGCTG
Residues (chain): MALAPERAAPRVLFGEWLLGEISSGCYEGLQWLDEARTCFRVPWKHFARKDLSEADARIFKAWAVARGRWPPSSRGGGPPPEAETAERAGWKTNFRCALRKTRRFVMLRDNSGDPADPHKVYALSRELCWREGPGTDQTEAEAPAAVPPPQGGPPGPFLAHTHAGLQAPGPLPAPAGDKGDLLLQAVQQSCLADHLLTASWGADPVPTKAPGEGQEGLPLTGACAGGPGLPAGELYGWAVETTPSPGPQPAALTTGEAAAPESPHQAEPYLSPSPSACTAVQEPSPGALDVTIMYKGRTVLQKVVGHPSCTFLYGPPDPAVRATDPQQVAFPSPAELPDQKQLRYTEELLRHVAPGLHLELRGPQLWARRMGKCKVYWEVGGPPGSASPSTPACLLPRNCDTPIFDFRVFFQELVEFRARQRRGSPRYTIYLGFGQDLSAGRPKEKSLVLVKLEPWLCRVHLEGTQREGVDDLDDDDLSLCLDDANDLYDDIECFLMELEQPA
Strand | log fluorescence [z-score]
GGCGATATCAGTCTCGAGACGTGCTAG | -0.332
TTAGAAATGGGGTATCGATTAGTGCTA | 0.138
TTAGGTCACGGTTTCGGTTAGTGCTAG | 9.62
TTAGGTCTCCTTCTCCTTTTGTGCTAG | 0.854
TTAGATCTCGGTTTCGATTAGTGCTAG | 9.01
TTAGAACTGGGACTGGATTAGTGCTAG | -0.157
TTAGGTATCGGACTGCGTTAGTGCTAG | 0.616
CCCGCCCCGCCCCGCCCGCAGTGCTAG | 0.25
TGAGGTATCGGTATCGGTTAGTGCTAG | 2.06
GACGAACTGAGTATCGACACGTGCTAG | -0.0513
GACAGTCTCCTTTTCCTGACGTGCTAG | 1.7
GACGGCCTCCTTCTCCTGACGTGCTAG | -0.378
TAAGATCTCAGTCTCGATTAGTGCTAG | 1.72
GACGGTATCCCACTGCTGACGTGCTAG | -0.227
TTATGACTGCTACTGCTTTAGTGCTAG | -0.671
GACGGTTCCCCTTTCCTGACGTGCTAG | 2.01
GACGGTTTCCTACTGCTGGCGTGCTAG | 1.71
CCAGACCCTGATCCATGCATGTGCTAG | -0.219
TTAGGTTTCAGGTTTCGGTTAGTGCTA | 8.78

A few entries again (series 4):
Strand | log fluorescence [z-score]
TTAGGTTTCAGGTTTCGGTTAGTGCTA | 8.78
GACGAACTGAGTATCGACACGTGCTAG | -0.0513
TTAGAAATGGGGTATCGATTAGTGCTA | 0.138
TTAGGTCTCCTTCTCCTTTTGTGCTAG | 0.854
TAAGATCTCAGTCTCGATTAGTGCTAG | 1.72
TTATGACTGCTACTGCTTTAGTGCTAG | -0.671
GGCGATATCAGTCTCGAGACGTGCTAG | -0.332
TTAGGTATCGGACTGCGTTAGTGCTAG | 0.616
TTAGATCTCGGTTTCGATTAGTGCTAG | 9.01
GACGGTTTCCTACTGCTGGCGTGCTAG | 1.71
